Measurements collected from several papers.
A part holds a random share of what one study measured. Changes are numbered by the printed parent chain.

Series 1
Target: CCNB1, cyclin fold, Cln2 fusion (human)
Method: yeast growth competition, sequencing
Matrix: yeast
Notes: strong parent motif
Reference: not given
Direction: higher = stronger binding
Parent: E2F1 docking peptide (human); PPVKRRLDFETDH
Under “normalised enrichment score”, `R6A` is recorded as 3.64.
`L7R` — result for “normalised enrichment score”: 0.392.
`K4G`: “normalised enrichment score” 3.18.
`V3A` — result for “normalised enrichment score”: 2.21.
For `E10C`, “normalised enrichment score” read 4.56.
Under “normalised enrichment score”, `D8M` is recorded as 4.65.
Under “normalised enrichment score”, `R5D` is recorded as 0.294.
`K4E`: “normalised enrichment score” 5.23.
`R6F`: “normalised enrichment score” 2.65.
For `R5H`, “normalised enrichment score” read 0.947.
`R5N` — result for “normalised enrichment score”: 0.991.
`L7Q` — result for “normalised enrichment score”: 0.184.
For `F9R`, “normalised enrichment score” read 0.429.
Under “normalised enrichment score”, `T11W` is recorded as 4.89.
`F9I` — result for “normalised enrichment score”: 0.781.
`D8W` — result for “normalised enrichment score”: 4.84.
`D12A` — result for “normalised enrichment score”: 5.1.
`K4T` — result for “normalised enrichment score”: 5.05.
Under “normalised enrichment score”, `R5A` is recorded as 1.79.
`E10A` — result for “normalised enrichment score”: 4.55.
`E10I`: “normalised enrichment score” 3.72.
Under “normalised enrichment score”, `E10M` is recorded as 4.
`L7K` — result for “normalised enrichment score”: 0.444.
Under “normalised enrichment score”, `R6S` is recorded as 3.52.
For `D12C`, “normalised enrichment score” read 4.74.

Series 2
Target: NFIL3, bZIP domain (human)
Method: DHFR protein complementation
Matrix: yeast
Notes: single substitutions, most at no-binding floor
Reference: wild-type JUN-FOS pair
Direction: higher = stronger binding
Parent: JUN, bZIP domain (human); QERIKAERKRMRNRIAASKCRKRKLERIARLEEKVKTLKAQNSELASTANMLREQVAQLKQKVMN; partner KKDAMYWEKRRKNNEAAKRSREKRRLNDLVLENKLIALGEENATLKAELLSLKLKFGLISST
`K36T` has a binding fitness of -1.42 natural log.
For `K39V`, the binding fitness was -1.47 natural log.
With `T48M` the binding fitness was -1.49 natural log.
For `E54P`, the binding fitness was -1.41 natural log.
The binding fitness of `L31W` is reported as -1.28 natural log.
With `S47T` the binding fitness was -1.35 natural log.
With `L52W` the binding fitness was -1.54 natural log.
`S47M` has a binding fitness of -1.5 natural log.
`S43M` gave a binding fitness of -1.31 natural log.
For `E33T`, the binding fitness was -1.49 natural log.
For `Q55S`, the binding fitness was -1.47 natural log.
With `L45Y` the binding fitness was -1.49 natural log.
The binding fitness of `E33A` is reported as -1.55 natural log.
`A29V` has a binding fitness of -1.35 natural log.
For `A49W`, the binding fitness was -1.5 natural log.
`L52P` gave a binding fitness of -1.53 natural log.

Series 3
Target: ABI1, truncated, D143A, DHFR fusion (Arabidopsis thaliana)
Method: DHFR PCA, deep sequencing
Matrix: yeast
Notes: methotrexate growth selection, single substitutions
Together with: (+)-ABA 0.0091 µM
Reference: wild-type fitted maximum
Direction: higher = stronger binding
Parent: PYL1, truncated, DHFR fusion (Arabidopsis thaliana); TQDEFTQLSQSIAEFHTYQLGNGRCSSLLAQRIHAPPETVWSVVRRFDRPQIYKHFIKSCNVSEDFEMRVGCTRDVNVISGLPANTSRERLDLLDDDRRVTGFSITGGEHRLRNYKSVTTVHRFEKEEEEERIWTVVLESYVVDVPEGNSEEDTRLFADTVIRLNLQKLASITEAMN
Under “relative binding score”, `E64F` is recorded as -4.97%.
For `I79T`, “relative binding score” read 25.2%.
`H122C` — result for “relative binding score”: -10.4%.
`T86I`: “relative binding score” 44.2%.
For `F47R`, “relative binding score” read -1.97%.
For `V137N`, “relative binding score” read -0.777%.
`D3G`: “relative binding score” 8.14%.
For `M68T`, “relative binding score” read 4.63%.
`H110L` — result for “relative binding score”: 15.8%.
`E147T` — result for “relative binding score”: 8.43%.
For `Y141A`, “relative binding score” read 0.799%.
For `Q10T`, “relative binding score” read 24.5%.
For `G81N`, “relative binding score” read 27.4%.
Under “relative binding score”, `L93T` is recorded as -0.34%.
For `F5V`, “relative binding score” read 19.7%.
For `M176C`, “relative binding score” read 5.41%.
`Q31T` — result for “relative binding score”: 2.27%.
`S42R` — result for “relative binding score”: 9.36%.
For `G71S`, “relative binding score” read 2.32%.
`S171W`: “relative binding score” 9.39%.
Under “relative binding score”, `C25K` is recorded as 0.91%.

Series 4
Target: Histone acetyltransferase KAT6A, both winged helices, GST fusion (KAT6A, Homo sapiens, UniProt Q92794, residues 1-181)
Method: protein binding microarray
Form: double-stranded DNA, one strand shown
Matrix: in vitro
Tested at: not given
Notes: 8-mer, flanks averaged, mean of 2 arrays, mostly near background
Reference: not given
Direction: higher = stronger binding
Target sequence (chain): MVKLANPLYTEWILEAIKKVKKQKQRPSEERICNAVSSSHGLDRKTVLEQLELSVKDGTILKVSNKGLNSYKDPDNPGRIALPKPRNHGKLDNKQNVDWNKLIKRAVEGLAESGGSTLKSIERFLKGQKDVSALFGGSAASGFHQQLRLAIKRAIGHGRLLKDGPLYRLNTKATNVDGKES
For `GTACAAAA`, the E-score was -0.0167.
`ATGCCAAC` has an E-score of -0.104.
For `ATGGCTCC`, the E-score was -0.0391.
The E-score of `CACCAGAC` is reported as -0.109.
For `AATTTCGG`, the E-score was 0.12.
The E-score of `AAATACCA` is reported as -0.165.
With `CGTAGGAC` the E-score was 0.0807.
The E-score of `TGGCCAAA` is reported as -0.187.
`CCGTTGGC` has an E-score of 0.195.
With `GAGCGTAC` the E-score was 0.232.
`AAACCCAG` has an E-score of -0.174.
`CACACTCA` has an E-score of -0.206.
With `ATCTAATC` the E-score was 0.0347.
For `AAACACAC`, the E-score was 0.114.
With `ACACAACG` the E-score was -0.0393.
For `CAAGAACA`, the E-score was -0.141.
`ACACGAAA` has an E-score of 0.0726.
`ACCTTAGG` has an E-score of -0.0128.
`ACATTCAA` gave an E-score of 0.0213.
`GTTTCGGA` has an E-score of -0.06.
With `AGTAATAA` the E-score was -0.0839.
The E-score of `GTTTTGTA` is reported as -0.116.
The E-score of `ACTTTTCT` is reported as -0.267.
With `CCTAGCAA` the E-score was -0.115.
`ATGCGCTA` gave an E-score of 0.21.

Some of these lines once more (series 4):
With `ATCTAATC` the E-score was 0.0347.
`GTTTCGGA` has an E-score of -0.06.
`ACCTTAGG` has an E-score of -0.0128.
The E-score of `CACCAGAC` is reported as -0.109.
For `GTACAAAA`, the E-score was -0.0167.
The E-score of `TGGCCAAA` is reported as -0.187.
With `CCTAGCAA` the E-score was -0.115.
The E-score of `GTTTTGTA` is reported as -0.116.
The E-score of `AAATACCA` is reported as -0.165.
For `CAAGAACA`, the E-score was -0.141.
`ACACGAAA` has an E-score of 0.0726.
With `GAGCGTAC` the E-score was 0.232.
`CCGTTGGC` has an E-score of 0.195.
